Measured values from different studies.
Each numbered part is a random draw from the data of one study; scales do not carry over between parts.

Series 1
Target: Ras GTPase-activating protein-binding protein 1, full length (G3BP1, Homo sapiens, UniProt Q13283)
Chain of UniProt Q13283 (whole entry, looked up): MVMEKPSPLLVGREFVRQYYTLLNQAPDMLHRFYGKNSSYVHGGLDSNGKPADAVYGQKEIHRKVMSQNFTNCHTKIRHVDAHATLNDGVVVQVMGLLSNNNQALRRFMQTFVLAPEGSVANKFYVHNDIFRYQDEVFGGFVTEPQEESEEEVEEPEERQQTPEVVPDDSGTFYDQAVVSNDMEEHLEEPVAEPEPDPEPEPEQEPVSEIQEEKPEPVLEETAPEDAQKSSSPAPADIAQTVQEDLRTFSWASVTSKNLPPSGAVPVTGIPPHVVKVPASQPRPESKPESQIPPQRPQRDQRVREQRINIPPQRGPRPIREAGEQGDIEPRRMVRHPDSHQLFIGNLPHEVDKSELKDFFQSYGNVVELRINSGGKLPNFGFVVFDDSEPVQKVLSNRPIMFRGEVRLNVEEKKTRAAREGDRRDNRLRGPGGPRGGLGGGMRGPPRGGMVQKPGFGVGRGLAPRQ
Technique: RNA Bind-n-Seq
Form: RNA
Matrix: in vitro
Concentration: 200 nM
Setting: whole 134-nt RNA, ends assumed
With: 150 mM LiCl
Reference: input library
Direction: higher = stronger binding
All molecules: 7-deaza-guanosine replaces G
The log2 enrichment of `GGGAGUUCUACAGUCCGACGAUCUCCUGUGCUACACAUCGUAUGUACCGAAUCAAAUUUUUAAACCCCCAAACCCCCCCAAAAAAGUAUUAUGUUACGCCGUUCGGAUCUGCAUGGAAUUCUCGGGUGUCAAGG` is reported as 0.942.
The log2 enrichment of `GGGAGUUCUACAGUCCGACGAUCUGGGAGGUGGAUUUUGUUUAUUUUUUUAGCUCAUUUCCAGGGGUGGGAAUUUUUUUUUAAUUUGUGUCAUGAAUAAAGUUGUUUUUGAAAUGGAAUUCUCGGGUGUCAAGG` is reported as -0.234.
`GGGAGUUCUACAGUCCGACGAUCAAGUCCUGUGCUACACAUCGUAUGUACCGAAUCGGGGUUUUGGGUUUUGGUUUUGGAAAGUAUUAUGUUACGCCGUUCGGAUCUGCACUUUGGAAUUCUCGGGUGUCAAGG` has a log2 enrichment of -1.12.
For `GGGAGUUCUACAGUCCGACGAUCCAAGUCCUGUGCUACACAUCGUAUGUACCGAAUCGGUUUGGUUUGGAAAAAAAGGAAAGUAUUAUGUUACGCCGUUCGGAUCUGCACUUCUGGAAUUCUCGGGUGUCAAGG`, the log2 enrichment was -1.09.
`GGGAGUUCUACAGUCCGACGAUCUCAAGUCCUGUGCUACACAUCGUAUGUACCGAAUCGGAAAGGGAAAGGGGAAAGGAAAGUAUUAUGUUACGCCGUUCGGAUCUGCACUUCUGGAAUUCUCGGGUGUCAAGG` gave a log2 enrichment of -0.478.
`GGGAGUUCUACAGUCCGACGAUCGCAGGAACUAAAAACAAAUGGAAAUGCUUCGGAUAGUGGCAGGGGUGGGGGUUGCUAAGGAAAGGGUGGGAUGGGAGUGGGUAAAGAGUUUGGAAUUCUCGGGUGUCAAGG` has a log2 enrichment of 0.199.
`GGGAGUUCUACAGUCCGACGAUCUGGCCCUGGUGGCAUGCGGGGAGGAAGAGGUGCCCUCAUGGAUCGUGGUGGUCCCGGUGGAAUGUUCAGAGGUGGCCGUGGUGGAGACAGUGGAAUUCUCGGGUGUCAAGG` has a log2 enrichment of -0.767.
`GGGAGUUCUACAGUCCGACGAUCCCUCAAGUCCUGUGCUACACAUCGUAUGUACCGAAUCGGAGGAGGGGAGGGGAAAGUAUUAUGUUACGCCGUUCGGAUCUGCACUUCCAGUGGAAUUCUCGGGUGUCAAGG` gave a log2 enrichment of 0.552.

Series 2
Target: Histone acetyltransferase KAT6A, winged helix 2, GST fusion (KAT6A, Homo sapiens, UniProt Q92794, residues 85-181)
Technique: protein binding microarray
Form: double-stranded DNA, one strand shown
Matrix: in vitro
Concentration: not given
Setting: 8-mer, flanks averaged, mean of 2 arrays, mostly near background
Reference: not given
Direction: higher = stronger binding
Target sequence (chain): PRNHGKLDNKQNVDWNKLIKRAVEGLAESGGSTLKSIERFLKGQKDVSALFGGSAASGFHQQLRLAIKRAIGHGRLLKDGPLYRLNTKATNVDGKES
The E-score of `AGGAGTAC` is reported as -0.136.
`GGAGTATA` has an E-score of -0.0887.
With `CGCGGCTA` the E-score was 0.122.
With `ATACCTCG` the E-score was 0.0709.
With `ACGGTGGC` the E-score was -0.0503.
`ATATGTTA` has an E-score of -0.129.
For `CTCGTAAC`, the E-score was -0.144.
The E-score of `CCTAGGAC` is reported as -0.13.
`GAGGACTC` gave an E-score of -0.221.
`AATTGGTG` has an E-score of -0.0837.
For `ATCGTTGC`, the E-score was 0.038.
`CAGAGATA` gave an E-score of -0.0156.
The E-score of `AGAATGCG` is reported as -0.0605.
With `GCGCGCAA` the E-score was 0.17.
`AAAGCCAA` has an E-score of 0.103.
For `ACTATCAT`, the E-score was -0.0157.
For `CTACGGAC`, the E-score was -0.228.
`CGACAAGA` gave an E-score of 0.0664.
`ACTCGTGA` gave an E-score of -0.152.
`CCCCCGCG` has an E-score of 0.249.
`CGACGCAA` gave an E-score of 0.228.
The E-score of `ACCGGCTA` is reported as -0.0271.

Series 3
Target: Interferon regulatory factor 5, full length, phosphomimetic (IRF5, Homo sapiens, UniProt Q13568-2, residues 1-514, K96S/S451D/S453D/S456D/S462D)
Technique: protein-binding microarray
Form: double-stranded DNA, one strand shown
Matrix: in vitro
Concentration: 250 nM
Setting: 60-bp whole probe
With: salmon DNA 0.4 mg/ml
Reference: random background probes
Direction: higher = stronger binding
Shared flanks, not repeated: GCCTAGCAC … GTCTTGATTCGCTTGACGCTGCTG
For `TACTTTCTATGTCTGTTTTTGTGCTAG`, the log fluorescence was 7.3 z-score.
The log fluorescence of `TCAACTCGCCTTTTTTGACTGTGCTAG` is reported as 0.207 z-score.
`GACGGTCTGGGGTATCGGGACGTGCTA` gave a log fluorescence of 0.151 z-score.
`GACGATCTCAGACTGGAGACGTGCTAG` has a log fluorescence of -0.221 z-score.
With `CTCAAGATTCCTCTCACCTCGTGCTAG` the log fluorescence was 0.14 z-score.
`TTGGATATCGGGTATCGATTAGTGCTA` has a log fluorescence of 5.01 z-score.
With `TTAGACTCCAGTTTCGATTAGTGCTAG` the log fluorescence was 9.64 z-score.
The log fluorescence of `TTAGATATCAGGTTCGATTAGTGCTAG` is reported as 1.12 z-score.
`TCCAGCCTGTTTCCAGCAGGGTGCTAG` gave a log fluorescence of -0.412 z-score.
`GACGATTTCAGTTTCGAGGCGTGCTAG` has a log fluorescence of 6.24 z-score.
`GGTCTTTCCGATTAGTCCCCGTGCTAG` gave a log fluorescence of 0.792 z-score.
`TCAATTTTAACCCTTATACTGTGCTAG` has a log fluorescence of 0.646 z-score.
With `GACGGACTGGGGTATCGGAACGTGCTA` the log fluorescence was 0.101 z-score.
The log fluorescence of `GACGGACTGGGACTGGGTACGTGCTAG` is reported as -0.585 z-score.
The log fluorescence of `GACGATTTCAGGCTCGAGACGTGCTAG` is reported as 0.232 z-score.
For `TTAGGTCTCGGACCGGGTTAGTGCTAG`, the log fluorescence was -0.212 z-score.
`GACGGACTGCTCCTCCTGACGTGCTAG` has a log fluorescence of -0.632 z-score.

Series 4
Target: Sal-like protein 4, full length isoform A (SALL4, Homo sapiens, UniProt Q9UJQ4, residues 1-1053)
Chain of UniProt Q9UJQ4 (whole entry, looked up): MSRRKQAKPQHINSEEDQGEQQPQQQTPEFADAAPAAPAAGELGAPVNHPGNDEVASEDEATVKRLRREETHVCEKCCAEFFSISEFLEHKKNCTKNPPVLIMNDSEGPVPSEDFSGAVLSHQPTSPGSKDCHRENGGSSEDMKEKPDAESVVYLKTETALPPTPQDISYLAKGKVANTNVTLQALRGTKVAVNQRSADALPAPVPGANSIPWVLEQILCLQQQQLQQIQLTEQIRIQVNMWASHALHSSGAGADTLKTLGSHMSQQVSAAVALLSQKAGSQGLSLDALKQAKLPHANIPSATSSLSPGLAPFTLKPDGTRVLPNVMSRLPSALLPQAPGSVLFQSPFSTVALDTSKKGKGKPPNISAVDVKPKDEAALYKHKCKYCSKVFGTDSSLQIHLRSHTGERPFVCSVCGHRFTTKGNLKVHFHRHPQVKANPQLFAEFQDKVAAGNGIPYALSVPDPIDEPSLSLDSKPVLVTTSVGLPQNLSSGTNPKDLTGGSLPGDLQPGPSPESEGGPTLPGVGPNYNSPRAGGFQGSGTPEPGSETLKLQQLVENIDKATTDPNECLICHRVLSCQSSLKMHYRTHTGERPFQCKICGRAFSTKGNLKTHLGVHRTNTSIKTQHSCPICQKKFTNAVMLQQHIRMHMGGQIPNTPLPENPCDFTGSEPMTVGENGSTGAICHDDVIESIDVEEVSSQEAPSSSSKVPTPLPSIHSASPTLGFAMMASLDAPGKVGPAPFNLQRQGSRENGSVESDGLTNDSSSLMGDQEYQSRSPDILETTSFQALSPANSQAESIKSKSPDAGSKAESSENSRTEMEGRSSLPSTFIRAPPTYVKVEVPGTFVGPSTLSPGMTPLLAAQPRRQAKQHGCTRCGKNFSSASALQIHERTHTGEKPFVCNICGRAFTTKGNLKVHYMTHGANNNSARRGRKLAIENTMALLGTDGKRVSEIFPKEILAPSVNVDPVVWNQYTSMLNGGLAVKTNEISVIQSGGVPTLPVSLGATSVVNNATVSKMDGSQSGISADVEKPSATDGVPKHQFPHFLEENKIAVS
Technique: universal PBM
Form: double-stranded DNA, one strand shown
Matrix: in vitro
Concentration: 600 nM
Setting: 8-mer, flanks averaged, mean of replicates
Direction: higher = stronger binding
For `CGCAAGTC`, the E-score was -0.237.
`CTGACGCA` has an E-score of -0.185.
With `CCCAATGC` the E-score was -0.181.
With `CAGTTCGG` the E-score was -0.197.
`AGACAAAG` gave an E-score of 0.0325.
`AGAGGTAT` has an E-score of 0.217.
For `CTAGATTA`, the E-score was 0.207.
`CCAGTAGC` has an E-score of -0.166.
`GAGAACTC` has an E-score of -0.205.
The E-score of `CGAGGTCC` is reported as -0.343.
The E-score of `CACGTGCG` is reported as -0.231.
With `ACCCTGGC` the E-score was -0.31.
For `AAATCGCC`, the E-score was -0.188.
The E-score of `AACGGAAC` is reported as -0.216.
`CCGTATAC` gave an E-score of 0.133.
With `CCAATGCG` the E-score was -0.156.
With `CAACCTCC` the E-score was -0.102.
With `CATAGGGA` the E-score was 0.112.
For `CGGATTGA`, the E-score was -0.0572.
`ATATTCTC` gave an E-score of 0.303.
`AAGAGGGT` has an E-score of -0.0804.

Excerpt of the above (series 1):
The log2 enrichment of `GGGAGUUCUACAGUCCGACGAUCUCCUGUGCUACACAUCGUAUGUACCGAAUCAAAUUUUUAAACCCCCAAACCCCCCCAAAAAAGUAUUAUGUUACGCCGUUCGGAUCUGCAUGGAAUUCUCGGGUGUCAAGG` is reported as 0.942.
`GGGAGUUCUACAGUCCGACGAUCCCUCAAGUCCUGUGCUACACAUCGUAUGUACCGAAUCGGAGGAGGGGAGGGGAAAGUAUUAUGUUACGCCGUUCGGAUCUGCACUUCCAGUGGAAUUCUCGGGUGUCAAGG` gave a log2 enrichment of 0.552.
For `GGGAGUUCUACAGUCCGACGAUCCAAGUCCUGUGCUACACAUCGUAUGUACCGAAUCGGUUUGGUUUGGAAAAAAAGGAAAGUAUUAUGUUACGCCGUUCGGAUCUGCACUUCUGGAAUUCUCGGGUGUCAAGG`, the log2 enrichment was -1.09.
